Assay results gathered from unrelated publications.
Each numbered part is a random draw from the data of one study; scales do not carry over between parts.

Block 1 — technique: RNA Bind-n-Seq; form: RNA; medium: in vitro; tested at: 365 nM; baseline: no-protein control; reading: higher = stronger binding; quantity: RBNS enrichment (R)
Target: RNA binding protein fox-1 homolog 2, RRM domain, GST-SBP tag (RBFOX2, Homo sapiens, UniProt O43251-10, residues 100-194)
Setting: natural RNA segment, single round, ends assumed
Target sequence (chain): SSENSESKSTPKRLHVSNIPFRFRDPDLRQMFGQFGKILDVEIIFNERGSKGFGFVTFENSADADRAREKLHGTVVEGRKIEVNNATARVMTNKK
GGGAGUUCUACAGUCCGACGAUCUUAGGUGAUGUCCUCAGACCUGGACCCCCACCAGCCUCACUCCCCAUCCCAACCAGAGAUGGCUCACUUCGGAUCGAGGGUUGACUACAUCUCAUCAUCUCACGAAUCUGUGGAAUUCUCGGGUGCCAA: 0.554
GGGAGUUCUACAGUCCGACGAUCAUUGAUGUGAGUUAUUAUGUCAAAAAAACUGAUCUAUUAAAGAAGUAAUUGGCCUUUCUGAGCUGAUUUUUCCAUCUUUUGUAAUUAUCUUUAUUAAAAAAUUGUACUUGUGGAAUUCUCGGGUGCCAA: 0.401
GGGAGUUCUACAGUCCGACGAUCAAGACUGAGAAUGUUCCCCCAAAUCUCCUCUGCCAACCAGAGCUCUGGGCACAGAUUCUGGUGGCUCCCUGCUGGCCCUCUUGGGCCUCUGCUCACACCUGGGAAGGGGCUGGAAUUCUCGGGUGCCAA: 0.668
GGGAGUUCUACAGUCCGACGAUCGAAUAAACUGCCCACUCAGAAGAUAUGUAAUUUGUAUCGUUGUAUAGUUUUAUUGAUUACACUGAUUUAUUCUACCCUAUUUUAUAAUGCAGGACUUUUGUAAUGUUGUCUGGAAUUCUCGGGUGCCAA: 0.611
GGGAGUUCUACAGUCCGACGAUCUGACAUGUAUUGGGCCACUAGCAGGGAUUGAAAACAUUUUAAAAGAAAUCCUUUUUCUUAGGAGUAAAAGCUGGUAAAAGGGGUGACUUCCUGGUUCUGAUCAAAACCAGUGGAAUUCUCGGGUGCCAA: 0.847
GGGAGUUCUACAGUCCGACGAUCUUUGAAGAAAAUGGAGACAGCUAGAACAAGCCCCCAGACUGCAAUCACUGGCUCCAGAAUUGUCUUUGCCCUUCUCACCUGUUCCUGGAAACUGGGGCAGCCAGUGCUUAUGGAAUUCUCGGGUGCCAA: 0.336
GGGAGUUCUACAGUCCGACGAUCACCAACUCCAGCUAUUGAGUCGUGAGACUUCUGUGUUGCAGAUGUGCCUGUUCCUCCAUCCUGCUGCCCCCCUCCAGGCCUGCCAGGUGGCCCCUGAAGGUUGCUUUAAGUGGAAUUCUCGGGUGCCAA: 0.394
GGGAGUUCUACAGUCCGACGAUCAUUAUAUAUUUUCCUUCCUGAUUGAAUCAUCAUCACUCCCUGUAACUAGCGAAAACCACCAGUCCAGACCUUAUCCAUUCUACUCAUUCACAGUUUUAAAAACUGCCAUGUGGAAUUCUCGGGUGCCAA: 0.711
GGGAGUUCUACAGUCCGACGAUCCUGUGAUUAAAAUCUUUAAGCAUUUGUUCCUGCCAAGGUAGUUUUCUUGCAUUUUGCUCUCCAUUCAGCAUGUGUGUGGGUGUGGAUGUUUAUAAACAAGACUAAGUCUGUGGAAUUCUCGGGUGCCAA: 14.2
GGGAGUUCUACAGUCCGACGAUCAGGCCCAUCUCACAAAGACUGGGGAUGUGAACACAUUGGUGUGAGUCAUCAGAAACCCCGUACUCAUGGCCCUGCUCAGGGCUGCUGUUGACUCUGCUUGAGAGGUGGCAUGGAAUUCUCGGGUGCCAA: 2.03
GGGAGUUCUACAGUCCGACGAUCAAGACUAUCCAAGCUGUGCUGACUGUCCCCAAGCUGAAGCUGAGCUUCGAAGGCGAACUUACCAAGUCUCUGCAGGACAUGGAGCUACAGUCGUUGUUUGAAUCACCCGAUGGAAUUCUCGGGUGCCAA: 0.296
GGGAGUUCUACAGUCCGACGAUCUGUCUUGAAGUCAAUGCAUGCUCGUGCUGUUCGACAGUAACCUACUCUGCCUUCUCCACCUCCGAGGCUGUGCAUUCAUCCAAUUAGUGUCAUGAAUGUUUCCCCUUUAUUGGAAUUCUCGGGUGCCAA: 5.71

Block 2 — technique: protein-binding microarray; form: double-stranded DNA, one strand shown; medium: in vitro; tested at: 0.8 µM; setting: whole 60-bp probe, no competitor; reading: higher = stronger binding; quantity: fluorescence intensity
Target: Centromere-binding protein 1, full length, N-terminal tag (CBF1, Saccharomyces cerevisiae, UniProt P17106, residues 1-351)
UniProt P17106, sequence (whole entry, looked up): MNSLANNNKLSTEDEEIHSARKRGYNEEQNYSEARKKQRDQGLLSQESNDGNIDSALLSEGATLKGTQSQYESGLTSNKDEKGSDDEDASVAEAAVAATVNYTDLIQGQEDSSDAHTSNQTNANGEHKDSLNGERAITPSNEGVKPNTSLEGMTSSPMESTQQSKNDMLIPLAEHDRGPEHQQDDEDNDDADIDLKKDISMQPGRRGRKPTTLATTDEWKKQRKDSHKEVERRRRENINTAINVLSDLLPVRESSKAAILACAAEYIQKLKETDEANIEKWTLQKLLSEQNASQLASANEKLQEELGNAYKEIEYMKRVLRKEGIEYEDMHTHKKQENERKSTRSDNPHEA
CTACTGCTCAACTAGAAGGTGGTGTTAATAACTTTCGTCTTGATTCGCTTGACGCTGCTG: 520 a.u.
GAATTAGCGAGCCAGCACGTTTCCTTCGCGCCGTAGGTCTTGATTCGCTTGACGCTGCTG: 566 a.u.
GAATAAAACATAAACGTGATGCTTTTACCACGTTAGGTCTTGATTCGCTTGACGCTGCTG: 1750 a.u.
GAAGTAAGAGAATGTGACATCAATTGTTGTTGCTAGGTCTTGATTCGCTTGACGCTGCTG: 827 a.u.
CTAAAGCTGCTATTTCAACTGATTATCTGCAGATTCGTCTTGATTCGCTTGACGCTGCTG: 544 a.u.
CTAGTGAACAATGATCACATTAATGAATCAACCTTCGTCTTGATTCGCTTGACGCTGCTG: 530 a.u.
GAATTTATTTTATTGCATGTGCTGTTTTCCCCATAGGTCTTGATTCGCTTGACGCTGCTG: 971 a.u.
GAACTAGAACTTCAATTCACCACGTTCAGGGTATAGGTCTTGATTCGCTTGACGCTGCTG: 554 a.u.
GAAGCATTTTTGGGGCTGATGTTTTAGTTCGAATAGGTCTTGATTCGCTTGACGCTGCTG: 504 a.u.
CTATACCGTTCACGCCACCTGACATTATACCACTTCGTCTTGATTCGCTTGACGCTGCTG: 1650 a.u.
CCTAACTACTATATCCACGCGCAATAGCTTCGTACAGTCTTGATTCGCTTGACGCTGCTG: 521 a.u.
GAAATTCTTCTCGTTCCCGTGATGTTTTCAATATAGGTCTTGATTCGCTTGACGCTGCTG: 1290 a.u.
GAATCGCGATCTTTACACGTTCCACTAGTCAATTAGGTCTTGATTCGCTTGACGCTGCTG: 540 a.u.
GAACCTACACCCCATCACCACTCACACAATAGTTAGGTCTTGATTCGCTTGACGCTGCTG: 524 a.u.
CTAATAGTACCTTAACACATGACGAAGATGAAATTCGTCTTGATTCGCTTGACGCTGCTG: 1310 a.u.
CCTAACTACTATATGCATGTGAAATAGCTTCGTACAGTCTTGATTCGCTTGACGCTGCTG: 567 a.u.
CTATTCACTTCAGCTGTCACCACCAGTTTTAGGTTCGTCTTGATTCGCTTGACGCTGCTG: 522 a.u.
GAAGTAATTTGAAGTCATCACGTTTGCCCACATTAGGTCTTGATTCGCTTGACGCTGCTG: 774 a.u.
GAAAATCAGGTGAATCATGTGGGACTGAAGAGATAGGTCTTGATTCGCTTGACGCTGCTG: 1030 a.u.
CTATAACTAGTTCATCAGTTGATGTGTCTGTATTTCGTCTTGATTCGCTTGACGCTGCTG: 504 a.u.
GAATTCTCTTTTGGTGGTGCGCTTTTGCATTTTTAGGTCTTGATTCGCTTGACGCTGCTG: 508 a.u.
CTATTCCATAACACAAACGTGACGTGCAAATAATTCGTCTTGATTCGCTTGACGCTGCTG: 3110 a.u.
CTAGTTTTTCACGTTGACGTGCTTCTTAGTCCTTTCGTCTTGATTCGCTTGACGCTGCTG: 606 a.u.
GAATAGCGAGAATATGGTGTGAACAGTAGCACTTAGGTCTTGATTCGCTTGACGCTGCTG: 515 a.u.
CTACCTATAAGAAGCCGCATCACCTTAAACACTTTCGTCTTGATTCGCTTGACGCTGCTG: 509 a.u.

Block 3 — technique: RNA Bind-n-Seq; form: RNA; medium: in vitro; tested at: 100 nM; baseline: input RNA pool; reading: higher = stronger binding; quantity: bound/input enrichment
Target: RING finger protein unkempt homolog, zinc fingers 1-6, SBP tag (UNK, Homo sapiens, UniProt Q9C0B0, residues 30-357)
UniProt Q9C0B0, sequence (30-357, looked up): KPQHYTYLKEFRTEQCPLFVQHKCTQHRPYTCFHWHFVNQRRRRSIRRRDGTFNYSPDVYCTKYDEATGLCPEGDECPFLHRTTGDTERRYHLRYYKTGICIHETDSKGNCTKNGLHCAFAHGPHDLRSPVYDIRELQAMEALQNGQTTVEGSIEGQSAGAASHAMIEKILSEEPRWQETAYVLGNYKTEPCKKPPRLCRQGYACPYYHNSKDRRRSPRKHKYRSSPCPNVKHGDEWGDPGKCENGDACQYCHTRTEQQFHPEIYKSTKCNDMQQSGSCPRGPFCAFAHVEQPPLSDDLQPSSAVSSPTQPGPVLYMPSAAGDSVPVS
Setting: RNA with constant flanks, vertebrate orthologous sites, ends assumed
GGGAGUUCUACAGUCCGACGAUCUCAUUGUACUGCAAAAAUCAUCCUCGUUUUAAAUUAGCCACAGUGAUAACUAGUCUGCACUAGUAGAAUCAUUUACCUUUUAAGUUAUCUGCUUUGUCUGAUACCUGAAACAUAUCAAAACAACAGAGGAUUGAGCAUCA: 0.349 ratio
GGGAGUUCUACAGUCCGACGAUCUAUCUUUAGGAUGAAGCUCUUACAUCAGGUGUCACACGUCUGGAAAACAGAUGGGUUGAGCAGUUGUGAUUACAAAUUACUCUCUGUGGAUUACAAUCCUUUAUAUAUCAACAUCACAGUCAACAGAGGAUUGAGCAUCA: 0.504 ratio
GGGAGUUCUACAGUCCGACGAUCUAACUGAGUGCUUAAGCUGCCAAUAGUUAUGCUAUUUAUUUGUGUCUGUAAGUUUGUACAUAGUAAUGCCAGCCUUGUUGCUGAAUUUUUUAUUUGGGGGUGGGGGGAUGAGUUUGAAUUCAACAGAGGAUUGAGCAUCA: 1.57 ratio
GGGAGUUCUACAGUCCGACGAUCACAAGAUUUGGACCUUGGAGCAGAACCAGUUAGCAAAAGGAAAGCAAGCUUGUAAAAUUAUAGCCAUAUGCAGCUGCACAACAGUACUUCCACUAGCAACUGUAUUGAAGUAUUUAUACACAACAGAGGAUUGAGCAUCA: 1.23 ratio
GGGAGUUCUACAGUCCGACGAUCUAAUGUGUUUUUAUUUAUUGAAAAUCGUUUUGUGGUAAGGAUUGUGUUAGAUUUACAAAUUAGUGAAUUGAUUCCUCUUUGUUGUGUUGCUUUCAUUGUUGAAAAUAAAUAGAACUUUGACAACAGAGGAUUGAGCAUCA: 0.799 ratio
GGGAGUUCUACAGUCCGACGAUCCAUUAACACACACAAUGUCUCCAGGGGGGUAUUAAAUUUGAUUUCUUACAUAUAAAACAAACAAAACCAACCAACGAACCAUUUUUAAAGUAGAAGAGGGUUUUUAAUAGAAAAUGACAUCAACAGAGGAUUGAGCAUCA: 1.27 ratio
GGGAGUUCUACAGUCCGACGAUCAUAAUCACUCUAAUUGUAUUCUGAAUAAAGUGUAACAUUGUGUAGCCUUUUUGUAUAAAAUAGACAAAUAGAAAUGGUCCAAUUAGUUUCCUUUUUAAUAUGCUUAAAAUAAGCAGGUGGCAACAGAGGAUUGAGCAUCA: 2.15 ratio
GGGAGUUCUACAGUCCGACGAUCAGAGCUCACAAACUGAAAGGAAAACUAUUAAAGAGUUUCUAAUAUUAACUAUUAAAAAGCUAGGAAAGAUUAGGACAAUUUUACAAAUGAGCAAUUAAAAAGAAAAGGAUCUGGGAACUACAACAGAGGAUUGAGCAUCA: 0.419 ratio
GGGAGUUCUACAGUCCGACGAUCAGAAAAUUUUAACCAAGAAUCUGAAGGUAGAAAUACAGGACCAUGGUUAUCUUCCUCACUUAGAAAUAGAUGCACACCCUUGUUCUCUAGAAGGAGGCGUGAGGGACGAGAUGAAUCUUCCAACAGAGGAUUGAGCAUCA: 0.771 ratio
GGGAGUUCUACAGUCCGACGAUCAAAUGAAAAUGGCUUCUGCUCCAUUAAAAAAUAAAAAUUGUCCCCUAUAAAACUCCUUAAUAGAUAUUUUUGGAAUUAAAAUCUUUAAAUUUUAUAAAUCAGCUCUUGCCACUUCAAAACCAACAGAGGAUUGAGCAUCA: 1.19 ratio
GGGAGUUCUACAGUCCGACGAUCUACUGUAUGUAGAGAAAACAUUUUCAUUGACCCCGUUGUGAAAUUCCCUAGCAAUUUAUUUAGAAUCUUCAUUUUUCUCAUUCAAGCUCAUUGUAUUAGUUAUUUUUAGCCCAUAAUUAACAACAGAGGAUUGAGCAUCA: 5.63 ratio

Block 4 — technique: protein binding microarray; form: double-stranded DNA, one strand shown; medium: in vitro; tested at: not given; baseline: not given; reading: higher = stronger binding; quantity: E-score
Target: Histone acetyltransferase KAT6A, winged helix 2, GST fusion (KAT6A, Homo sapiens, UniProt Q92794, residues 85-181)
Setting: 8-mer, flanks averaged, mean of 2 arrays, mostly near background
Target sequence (chain): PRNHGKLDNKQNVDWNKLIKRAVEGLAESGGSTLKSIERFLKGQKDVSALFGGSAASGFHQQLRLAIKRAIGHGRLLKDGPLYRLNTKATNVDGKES
GTTAAATA: -0.0726
AAACGACC: 0.103
CTCAGCAC: -0.00587
CACAACGG: -0.0811
GACATGAC: -0.112
AGTTATCG: 0.0429
GAGTCGCC: 0.00375
CGTAAGAA: -0.0543
TTCCGGAA: 0.17
ACAATCAA: 0.000135
ACAATGAT: -0.19
CAATATGA: 0.0174
TACCGGGA: -0.0335
GATCCTCA: -0.0159
ACTGGTCG: -0.192
CAGTCGGA: -0.0673
AACGAGCA: -0.0144
CATTACAA: 0.0353

For quick reference, copied from above (block 4):
ACAATGAT: -0.19
CGTAAGAA: -0.0543
GAGTCGCC: 0.00375
CAGTCGGA: -0.0673
TACCGGGA: -0.0335
CATTACAA: 0.0353
ACTGGTCG: -0.192
CTCAGCAC: -0.00587
CACAACGG: -0.0811
AAACGACC: 0.103
GACATGAC: -0.112
